Results of several laboratories.
Every numbered part comes from another study and shows a few of its results, in no order. Values joined by “and” are separate records of one study, mostly repeats; a detail may differ.
UniProt Q99640, sequence (whole entry, looked up): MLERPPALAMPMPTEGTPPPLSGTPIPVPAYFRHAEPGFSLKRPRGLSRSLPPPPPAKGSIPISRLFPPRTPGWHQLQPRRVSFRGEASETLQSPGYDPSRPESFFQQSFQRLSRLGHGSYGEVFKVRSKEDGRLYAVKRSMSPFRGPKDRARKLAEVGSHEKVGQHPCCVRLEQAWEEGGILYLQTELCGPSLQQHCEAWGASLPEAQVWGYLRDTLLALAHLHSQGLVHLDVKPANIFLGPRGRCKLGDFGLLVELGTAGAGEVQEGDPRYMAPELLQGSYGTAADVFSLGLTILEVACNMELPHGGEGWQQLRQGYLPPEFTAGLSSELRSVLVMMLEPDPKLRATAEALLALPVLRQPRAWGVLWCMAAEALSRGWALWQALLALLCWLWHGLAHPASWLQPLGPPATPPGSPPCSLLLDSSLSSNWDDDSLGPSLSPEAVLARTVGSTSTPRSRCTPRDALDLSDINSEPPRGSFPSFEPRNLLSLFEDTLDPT

Sample 1
Compound: COCC1CC2C(CCC3C(O)CCC32)c2ccc(O)cc21 (centres unmarked)
cell line	assay	conditions	scale	mRNA level ratio
A549	DNA microarray, refers to: MCM7	25 µM	baseline: untreated cells	1.14
SK-OV-3	microarray, refers to: PIF1	25 µM	baseline: untreated	0.811
SK-OV-3	microarray, refers to: AURKA	100 µM	baseline: untreated	1.04
PANC-1	microarray, refers to: PIF1	25 µM	baseline: untreated	1.47
A549	DNA microarray, refers to: KIF20A	25 µM	baseline: untreated cells	1.02 and 0.992 and 0.979 and 1.01
A549	DNA microarray, refers to: MCM10	100 µM	baseline: untreated cells	0.747
PANC-1	DNA microarray, refers to: GINS1	100 µM	baseline: untreated cells	1.06
PANC-1	microarray, refers to: OLIG2	25 µM	baseline: untreated	1
PANC-1	DNA microarray, refers to: MCM10	25 µM	baseline: untreated cells	1.45
A549	microarray, refers to: CDC25B	100 µM	baseline: untreated	0.971
PANC-1	DNA microarray, refers to: MCM7	100 µM	baseline: untreated cells	0.811
SK-OV-3	microarray, refers to: MCM6	25 µM	baseline: untreated	1.12
A549	DNA microarray, refers to: GAPDH	100 µM	baseline: untreated cells	0.791 and 0.798 and 0.762 and 0.79
PANC-1	DNA microarray, refers to: GAPDH	100 µM	baseline: untreated cells	0.627 and 0.63 and 0.624 and 0.608 and 0.631

Sample 2
SMILES: C=C(CN)COc1cccc(Cn2c(=S)[nH]c(=O)c3[nH]cnc32)c1
AOC3: Amine oxidase [copper-containing] 3 (AOC3, Homo sapiens, UniProt Q16853)
UniProt Q16853, sequence (whole entry, looked up): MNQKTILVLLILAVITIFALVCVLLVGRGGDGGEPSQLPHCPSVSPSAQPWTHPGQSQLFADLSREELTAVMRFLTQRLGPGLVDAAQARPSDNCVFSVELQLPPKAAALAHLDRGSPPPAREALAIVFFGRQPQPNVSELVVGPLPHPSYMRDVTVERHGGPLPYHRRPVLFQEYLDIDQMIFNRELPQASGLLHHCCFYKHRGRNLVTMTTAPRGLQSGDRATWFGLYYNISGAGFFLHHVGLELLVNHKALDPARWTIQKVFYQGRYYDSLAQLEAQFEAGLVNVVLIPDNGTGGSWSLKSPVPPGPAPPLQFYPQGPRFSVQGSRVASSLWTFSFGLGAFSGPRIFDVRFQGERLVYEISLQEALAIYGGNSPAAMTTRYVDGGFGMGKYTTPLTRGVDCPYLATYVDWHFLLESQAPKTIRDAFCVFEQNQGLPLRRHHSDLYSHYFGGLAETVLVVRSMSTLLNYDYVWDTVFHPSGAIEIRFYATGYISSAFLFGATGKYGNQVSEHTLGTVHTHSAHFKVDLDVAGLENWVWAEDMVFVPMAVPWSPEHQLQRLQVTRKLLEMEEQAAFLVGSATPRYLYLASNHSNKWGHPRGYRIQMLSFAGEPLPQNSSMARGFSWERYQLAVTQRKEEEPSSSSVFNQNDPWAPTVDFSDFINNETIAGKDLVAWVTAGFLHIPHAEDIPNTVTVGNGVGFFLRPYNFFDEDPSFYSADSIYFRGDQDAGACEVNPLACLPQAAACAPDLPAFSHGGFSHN
MPO: Myeloperoxidase (MPO, Homo sapiens, UniProt P05164)
UniProt P05164, sequence (whole entry, looked up): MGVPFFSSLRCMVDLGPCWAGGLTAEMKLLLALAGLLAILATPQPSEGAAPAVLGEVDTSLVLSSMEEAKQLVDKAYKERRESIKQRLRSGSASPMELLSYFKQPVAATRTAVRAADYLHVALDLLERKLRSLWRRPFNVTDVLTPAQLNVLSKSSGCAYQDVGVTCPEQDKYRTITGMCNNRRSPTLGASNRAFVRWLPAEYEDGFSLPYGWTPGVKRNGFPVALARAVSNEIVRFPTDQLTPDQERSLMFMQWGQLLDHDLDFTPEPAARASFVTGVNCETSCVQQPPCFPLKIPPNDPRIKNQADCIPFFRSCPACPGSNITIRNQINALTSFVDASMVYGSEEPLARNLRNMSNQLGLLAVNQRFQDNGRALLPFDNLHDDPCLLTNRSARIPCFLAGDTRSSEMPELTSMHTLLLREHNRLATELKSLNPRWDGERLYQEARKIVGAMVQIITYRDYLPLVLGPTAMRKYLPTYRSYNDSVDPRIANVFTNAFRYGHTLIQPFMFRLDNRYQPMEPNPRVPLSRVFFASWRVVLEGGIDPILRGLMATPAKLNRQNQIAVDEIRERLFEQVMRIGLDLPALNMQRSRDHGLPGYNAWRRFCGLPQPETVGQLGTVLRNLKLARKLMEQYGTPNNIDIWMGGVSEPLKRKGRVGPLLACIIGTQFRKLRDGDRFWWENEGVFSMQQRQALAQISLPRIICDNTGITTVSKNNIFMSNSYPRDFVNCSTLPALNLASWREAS
target	assay	conditions	inhibition
AOC3	H2O2 production, inhibitor, Amplex Red	0.0046 µM	-4.79 % Inhibition and 8.21 % Inhibition
AOC3	enzyme activity, Amplex Red H2O2 production	1.111 µM	47.9%
AOC3	H2O2 production, inhibitor, Amplex Red	0.1235 µM	20.8 % Inhibition and 0.653 % Inhibition
MPO	enzyme activity	0.3704 µM	98.8% and 98.3%
MPO	enzyme activity	0.0005 µM	-4.42% and 8.91% and 1.04%
MPO	enzyme activity, inhibitor, fluorescence	1 µM	99.3%
MPO	enzyme activity	1.111 µM	99.3% and 99.5%

Sample 3
SMILES: CCN1/C(=C/C=C2\CCCC(/C=C/C3=[N+](CC)c4ccccc4C3(C)C)=C2NCCCCCCCCN2CCC(Nc3nc4ccccc4n3Cc3ccc(F)cc3)CC2)C(C)(C)c2ccccc21
Cell line: U-87 MG
Concentration: concentration not given
Baseline: DMSO
assay	log2 fold change
refers to: TRIT1 mRNA	0.83
refers to: FZD2 mRNA	-1.92
refers to: DCLRE1B mRNA	-1.3
refers to: ABI1 mRNA	1.43
refers to: PFAS mRNA	-0.923
refers to: OSBPL7 mRNA	-1.59
refers to: TNFRSF1A mRNA	-0.975
refers to: USP6NL mRNA	0.885
refers to: DUSP16 mRNA	1.03
refers to: DIXDC1 mRNA	-1.13
refers to: MED26 mRNA	0.864
refers to: RALGAPA1 mRNA	1.05
refers to: FAIM2 mRNA	-1.17
refers to: SNRPE mRNA	-0.857
refers to: SLCO5A1 mRNA	3.4
refers to: SP140 mRNA	-0.903

Further values, each from its own experiment
SMILES	target or system	assay	test system	conditions	endpoint	result
Cc1ccc(O)c(C)c1-c1cnc2[nH]c(-c3cnc(N4CCC5(CC4)CC(N4CCN(c6ccc(N[C@H]7CCC(=O)N(C)C7=O)cc6F)CC4)CO5)nc3)cc2c1C#N (single isomer, unassigned)	HCC1569	automated immunoblotting, refers to: CDK1 phospho-Thr14		24 h	IC50	75.3 nM
Cc1ccc(O)c(C)c1-c1cnc2[nH]c(-c3cnc(N4CCC(CN5CCN(c6ccc(NC7CCC(=O)NC7=O)c(F)c6)CC5)CC4)nc3)cc2c1C#N (racemic)	PKMYT1 (Homo sapiens, UniProt Q99640)	binding, HTRF			IC50	4.6 nM
Cc1ccc(O)c(C)c1-c1cnc2[nH]c(-c3cnc(N4CCC(CN5CCN(c6cc7c(cc6F)n(C6CCC(=O)NC6=O)c(=O)n7C)CC5)CC4)nc3)cc2c1C#N (centres unmarked)			CD-1 mouse, female, plasma	oral, 20 mg/kg	half-life	2.6 h
Cc1ccc(O)c(C)c1-c1cnc2[nH]c(-c3cnc(N4CCC(CN5CCN(c6ccc7c(c6)CN(C6CCC(=O)NC6=O)C7=O)CC5)CC4)nc3)cc2c1C#N (centres unmarked)			female CD-1 mouse, plasma	oral, 10 mg/kg	AUC(0-t)	713 ng·h/mL
